Results gathered from unrelated publications.
Each numbered part is a random draw from the data of one study; scales do not carry over between parts.

Series 1
Target: Ras GTPase-activating protein-binding protein 1, RRM domain (G3BP1, Homo sapiens, UniProt Q13283)
UniProt Q13283, sequence (whole entry, looked up): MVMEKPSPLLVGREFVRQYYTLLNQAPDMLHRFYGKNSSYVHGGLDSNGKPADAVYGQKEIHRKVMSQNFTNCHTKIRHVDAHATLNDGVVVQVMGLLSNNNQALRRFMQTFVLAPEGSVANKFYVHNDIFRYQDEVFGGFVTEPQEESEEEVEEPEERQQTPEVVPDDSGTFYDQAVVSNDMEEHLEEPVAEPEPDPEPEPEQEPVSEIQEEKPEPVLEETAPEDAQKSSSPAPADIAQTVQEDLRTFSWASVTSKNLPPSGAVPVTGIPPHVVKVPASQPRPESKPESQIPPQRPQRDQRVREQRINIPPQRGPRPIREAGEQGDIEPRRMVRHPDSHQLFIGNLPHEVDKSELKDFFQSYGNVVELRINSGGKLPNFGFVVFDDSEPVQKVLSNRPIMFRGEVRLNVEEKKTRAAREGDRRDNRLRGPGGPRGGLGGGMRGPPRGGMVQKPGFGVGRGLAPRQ
Method: RNA Bind-n-Seq
Form: RNA
Medium: in vitro
Concentration: 1 µM
Setting: whole 134-nt RNA, ends assumed
Added: 150 mM KCl
Reference: input library
Direction: higher = stronger binding
All sequences stand within: GGGAGUUCUACAGUCCGACGAUC … UGGAAUUCUCGGGUGUCAAGG
Strand	log2 enrichment
CUGUGCUACACAUCGUAUGUACCGAAUCGGGGAAAAAAAGGAAAAAAAGGAAAAAAAGGGGAAAGUAUUAUGUUACGCCGUUCGGAUCUG	0.0202
UAACUUUAGAGGAGGAUCGGAUGGAUAUGGCAGUGGACGUGGAUUUGGGGAUGGCUAUAAUGGGUAUGGAGGAGGACCUGGAGGUGGCAA	-0.735
AGUCCUGUGCUACACAUCGUAUGUACCGAAUCGGGGUUUGGGGAAAGGGGAAAGGGGAAAGUAUUAUGUUACGCCGUUCGGAUCUGCACU	1.88
GUCCUGUGCUACACAUCGUAUGUACCGAAUCGGAAAAAAGGGAAAAAAGGAAAAAAGGGAAAGUAUUAUGUUACGCCGUUCGGAUCUGCA	0.0311
UCCUGUGCUACACAUCGUAUGUACCGAAUCGGCCCCCCGGGGCCCCCCGGGCCCCCCGGAAAGUAUUAUGUUACGCCGUUCGGAUCUGCA	-0.335
CUGUGCUACACAUCGUAUGUACCGAAUCGGGGUUUUUGGGGAAAAAGGGGAAAAAAAGGGGAAAGUAUUAUGUUACGCCGUUCGGAUCUG	0.935
UAACUUUCGAGGAGGAUCUGAUGGAUAUGGCAGUGGACGUGGAUUUGGGGAUGGCUAUAAUGGGUAUGGAGGAGGACCUGGAGGUGGCAA	-0.738
CUGUGCUACACAUCGUAUGUACCGAAUCGGGAAAAAAAGGGAAAAAAAGGGGAAAAAAAGGGAAAGUAUUAUGUUACGCCGUUCGGAUCU	0.245
UGUUGGGCUUCGAUCCCAGGUGGAUGAUGAUGCCUUCCUACAUGGACCCACGUAUCACGCCCACUCGGACCCCGGUGGACUUCUACCCCU	-0.325
UAAGGAUUCUAUCUGCUUACUGCUACAGACCUAUGUGUUAAGGAAUUCUUCUCCUCCUCCUUGCGUAGAAGUUGAUCAGCACUGUGGUCA	-0.226
UGGGAGGUGGAUUUUGUUUAUUUUUUUAGCGCAUUUCCAGGGGUGGGAAUUUUUUUUUAAUAUGUGUCAUGAAUAAAGUUGUUUUUGAAA	2.21
ACCAUGCAGGUGGGCAUCUUAGGGAAGUGGGGCAAGGGGGGGAUAGGGAGGGGGGUAACACUUUGGGAACAGGUGGUCCCAGGUCGUUUC	-0.432
AAGUCCUGUGCUACACAUCGUAUGUACCGAAUCGGGGAAAGGAAAGGGGAAAGGGGAAAGUAUUAUGUUACGCCGUUCGGAUCUGCACUU	0.197
CCUGUGCUACACAUCGUAUGUACCGAAUCGGGGAAAAAAGGGAAAAAAGGGAAAAAAGGGAAAGUAUUAUGUUACGCCGUUCGGAUCUGC	0.00342

Series 2
Target: Prothrombin, mature alpha-thrombin (F2, Homo sapiens, UniProt P00734)
Method: aptamer microarray, sandwich
Form: DNA with 2'F-ANA
Medium: in vitro
Concentration: 200 nM
Setting: whole 15-mer aptamer, many near background
Added: Cy3 exosite-II aptamer, 400 nM
Direction: higher = stronger binding
Strand: GGTTGGTGTGGTTGG
Modification	mean fluorescence intensity
2'F-ANA at 1 2 6 7 9 11 13 15	84.8 a.u.
2'F-ANA at 4 6 7 10 11 12 13 15	75.9 a.u.
2'F-ANA at 1 2 3 5 6 7 9 10 12 15	49.3 a.u.
2'F-ANA at 1 4 5 9 10 11 12 15	48.2 a.u.
2'F-ANA at 2 3 7 9 10 12	479 a.u.
2'F-ANA at 3 4 5 6 11 12 13 14	52.1 a.u.
2'F-ANA at 1 5 7 10 13	48.8 a.u.
2'F-ANA at 1 3 4 5 7 8 12	149 a.u.
2'F-ANA at 1 2 4 6 7 8 13 14 15	53.8 a.u.
2'F-ANA at 1 2 6 10	53.1 a.u.
2'F-ANA at 3 5 8 9 11 14	59 a.u.
2'F-ANA at 1 7 9 11 12	315 a.u.
2'F-ANA at 4 5 6 7 8 11	63.9 a.u.
2'F-ANA at 2 6 7 8 10 12 15	277 a.u.
2'F-ANA at 3 7 8 10 11 13 14	411 a.u.
2'F-ANA at 1 3 7 9 11 13 14 15	93.7 a.u.
2'F-ANA at 1 8 11 12 13 14	74.1 a.u.
2'F-ANA at 1 2 4 7 8 10 11 12 13 14 15	67.4 a.u.
2'F-ANA at 1 2 3 4 5 6 7 8 9 11 14 15	53.4 a.u.
2'F-ANA at 2 3 6 11 12 14 15	345 a.u.
2'F-ANA at 1 3 6 7 9 11	209 a.u.
2'F-ANA at 1 2 3 4 5 6 8 10 13 15	48.1 a.u.
2'F-ANA at 1 3 4 9 11 14	61 a.u.
2'F-ANA at 2 3 6 7 9 11 15	551 a.u.
2'F-ANA at 1 2 3 4 6 10 15	75.3 a.u.

Series 3
Target: RNA binding protein fox-1 homolog 2, RRM domain, GST-SBP tag (RBFOX2, Homo sapiens, UniProt O43251-10, residues 100-194)
Method: RNA Bind-n-Seq
Form: RNA
Medium: in vitro
Concentration: 365 nM
Setting: natural RNA segment, single round, ends assumed
Reference: no-protein control
Direction: higher = stronger binding
All sequences stand within: GGGAGUUCUACAGUCCGACGAUC … UGGAAUUCUCGGGUGCCAA
Residues (chain): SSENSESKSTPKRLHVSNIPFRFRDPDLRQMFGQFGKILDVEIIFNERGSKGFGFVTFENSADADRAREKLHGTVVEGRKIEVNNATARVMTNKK
Strand	RBNS enrichment (R)
CCCGAGAGCUAAAGCCGAUGGUCAGGAAAAGUGACCUGUCUCUGCAGAUUGGAAGAAUGGACUCUAAGGAGGCUGUUUGCACAAGGCUCUCCACUCACCAGCUGUUGAGU	0.452
CUUUAGUAACUGCUCCUAAACUUUUUAACUCUAAAGGAGCGUGGAAAGCCCGCAUCACAGUGUUCAGUGACUGCUCUGCUCCAUUCUUUCUCCUCUCCAGUUUCUCUCUU	0.711
AAGUGGACCUAAGUGGCCGAGAGAGGAGGGUCUGGCCUCCUUGGCCCCCCAUCUUGCUUUCCCAGGGGCUGGCUUAUUGACAUUCCUCACAUGUUCUGAGUAUGGAACCU	0.404
UCCACCUUUUUGUCUCUUUCUCCCAGGAUCUUCCCUCUGUCUCCCAGACUGUCUCCCAUCUGUUUCUCUCCCUCCUCCCAGAGCUGUGAGGAUGAAGGCAAGACUGAUUG	0.869
ACUUCCUAGGACUAAGUUUACUAAACUACACUGAAGCUAUUAUACUUUCUAGAUCAGAAAAAUUAUACACUACAGUUGAAGAGCUGAAUUCUACUAUGGAUGGAUGUUGU	0.31
GCUUGGACAAUCUUAGUAUUUACACGUGAGAUGAAAUGAAGAGUCCCGUGUGCUGCUCUGUGUGCAAGAGUACUGACCGCUCUGCUGAACCUUCAUGUCUUUUCUAGUGG	0.442
AAAAAAAAUAGUUUUUUUAGAGUAGAGUUAUUUUCUGGGAGAGUUACUACAAAUGCUUAUUCUCAUUGACUUAUUUCUUUCAUGGUAACUUUCGUUUUGGAGUGUUCAUU	0.649
UCCUGGCCAGCCCCAGCUCAUCACAUUGGGUCCACAGGCAUCCCAGCAUGGGUCCCUGCGCCUCCCUCUCAAGGAGUUGAUUUUUUUUCCCCUCAGUUUCCCCACACCCA	0.661
UUUUAAAUGUCUAUAUCUUUUAUUAUAGAGAAACCAUUAGAUCCAAUAAAUGAAGAAAUACAUUUUAAGUAGAUAUCAGUUACUUUUAAUUUGUAUGGUAAAUAUAUACA	0.473
CUUGUUUGAGACUGGGCUGCAGGCCCCAGGAAGACUUUCCUUCACCCACCAUCCCCCUAACCUCGGCAGGGCUUCUGUCCUGUGGAGUUCCCUGGACACCUUGGUCUGGC	0.375
AGUUAGAGCACUGUUUAGCUCCUUUGUCUGUGUGAUAGACCUAAGAACUGUAUUAGUGUUGUACCAGCCUAUUAACCUCUUGUCUGUGCACAGCUUCAAAUGUUACCGUC	0.311
GUCGUGGAGCCACUUCUCGCACUGCCACGGAGCAGCCGGAAACAAGGAGGCCUCGUGGGAUCCUUUAGUGCCAAGCCUGGCGUCCCUGGCCUCAAUUCCGACCUGAGCCC	0.346

Series 4
Target: Histone acetyltransferase KAT6A, both winged helices, GST fusion (KAT6A, Homo sapiens, UniProt Q92794, residues 1-181)
Method: protein binding microarray
Form: double-stranded DNA, one strand shown
Medium: in vitro
Concentration: not given
Setting: 8-mer, flanks averaged, mean of 2 arrays, mostly near background
Reference: not given
Direction: higher = stronger binding
Residues (chain): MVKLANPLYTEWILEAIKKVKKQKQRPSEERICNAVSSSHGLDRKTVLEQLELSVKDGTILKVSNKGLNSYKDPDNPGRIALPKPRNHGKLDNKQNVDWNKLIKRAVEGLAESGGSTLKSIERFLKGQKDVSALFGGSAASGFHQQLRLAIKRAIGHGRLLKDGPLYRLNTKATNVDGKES
Strand	E-score
ATAGTTCC	-0.115
CGCTATCC	0.144
ACCCAGAC	0.0679
ACGCTCGA	0.117
AAATCCTT	-0.115
CGCTCGAC	0.111
AAGGGTGG	-0.208
ACGGTATA	0.212
ACCTGACT	-0.088
CGGATGTA	0.201
TGTCCACA	-0.142
CGTTGTAG	0.0495
GGCCCTCA	-0.155
ACAGGATG	-0.0936
GTAAACTA	0.0297
GAAATGCC	0.0533
AAGTGATC	-0.0754
AGCCCGCG	0.26
GACCGTTA	0.148
CCTCCAGG	-0.131
ACCTGGGG	-0.197

A few entries again (series 3):
Strand	RBNS enrichment (R)
CCCGAGAGCUAAAGCCGAUGGUCAGGAAAAGUGACCUGUCUCUGCAGAUUGGAAGAAUGGACUCUAAGGAGGCUGUUUGCACAAGGCUCUCCACUCACCAGCUGUUGAGU	0.452
CUUUAGUAACUGCUCCUAAACUUUUUAACUCUAAAGGAGCGUGGAAAGCCCGCAUCACAGUGUUCAGUGACUGCUCUGCUCCAUUCUUUCUCCUCUCCAGUUUCUCUCUU	0.711
AAGUGGACCUAAGUGGCCGAGAGAGGAGGGUCUGGCCUCCUUGGCCCCCCAUCUUGCUUUCCCAGGGGCUGGCUUAUUGACAUUCCUCACAUGUUCUGAGUAUGGAACCU	0.404
UCCACCUUUUUGUCUCUUUCUCCCAGGAUCUUCCCUCUGUCUCCCAGACUGUCUCCCAUCUGUUUCUCUCCCUCCUCCCAGAGCUGUGAGGAUGAAGGCAAGACUGAUUG	0.869
ACUUCCUAGGACUAAGUUUACUAAACUACACUGAAGCUAUUAUACUUUCUAGAUCAGAAAAAUUAUACACUACAGUUGAAGAGCUGAAUUCUACUAUGGAUGGAUGUUGU	0.31
GCUUGGACAAUCUUAGUAUUUACACGUGAGAUGAAAUGAAGAGUCCCGUGUGCUGCUCUGUGUGCAAGAGUACUGACCGCUCUGCUGAACCUUCAUGUCUUUUCUAGUGG	0.442
AAAAAAAAUAGUUUUUUUAGAGUAGAGUUAUUUUCUGGGAGAGUUACUACAAAUGCUUAUUCUCAUUGACUUAUUUCUUUCAUGGUAACUUUCGUUUUGGAGUGUUCAUU	0.649
UCCUGGCCAGCCCCAGCUCAUCACAUUGGGUCCACAGGCAUCCCAGCAUGGGUCCCUGCGCCUCCCUCUCAAGGAGUUGAUUUUUUUUCCCCUCAGUUUCCCCACACCCA	0.661
UUUUAAAUGUCUAUAUCUUUUAUUAUAGAGAAACCAUUAGAUCCAAUAAAUGAAGAAAUACAUUUUAAGUAGAUAUCAGUUACUUUUAAUUUGUAUGGUAAAUAUAUACA	0.473
CUUGUUUGAGACUGGGCUGCAGGCCCCAGGAAGACUUUCCUUCACCCACCAUCCCCCUAACCUCGGCAGGGCUUCUGUCCUGUGGAGUUCCCUGGACACCUUGGUCUGGC	0.375
AGUUAGAGCACUGUUUAGCUCCUUUGUCUGUGUGAUAGACCUAAGAACUGUAUUAGUGUUGUACCAGCCUAUUAACCUCUUGUCUGUGCACAGCUUCAAAUGUUACCGUC	0.311
